{"data": "Published values collected from several papers", "note": "A part holds a random share of what one study measured."}
{"data": "Study 1", "target": "Interferon regulatory factor 3, full length, phosphomimetic (IRF3, Homo sapiens, UniProt Q14653, residues 1-427, S386D/S396D/S398D/S402D/T404D/S405D)", "technique": "protein-binding microarray", "molecule type": "double-stranded DNA, one strand shown", "sample": "in vitro", "tested at": "2540 nM top", "setting": "60-bp whole probe", "together with": "salmon DNA 0.4 mg/ml", "relative to": "random background probes", "reading": "higher = stronger binding", "shared flanks, not repeated": "GCCTAGCAC … GTCTTGATTCGCTTGACGCTGCTG", "Residues (chain)": "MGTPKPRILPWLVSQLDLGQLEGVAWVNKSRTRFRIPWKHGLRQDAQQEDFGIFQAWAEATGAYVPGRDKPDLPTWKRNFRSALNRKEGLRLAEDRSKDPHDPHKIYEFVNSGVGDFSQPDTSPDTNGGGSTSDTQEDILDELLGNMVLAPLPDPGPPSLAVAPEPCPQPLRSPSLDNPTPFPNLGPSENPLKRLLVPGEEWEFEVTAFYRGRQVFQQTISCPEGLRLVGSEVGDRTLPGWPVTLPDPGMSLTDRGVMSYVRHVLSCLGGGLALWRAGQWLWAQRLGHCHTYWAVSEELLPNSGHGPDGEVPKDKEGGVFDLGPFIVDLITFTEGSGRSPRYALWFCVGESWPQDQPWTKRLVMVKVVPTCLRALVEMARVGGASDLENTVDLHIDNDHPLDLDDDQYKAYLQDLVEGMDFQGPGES"}
{"Strand": "TTACAACTGAGTTTCGATTAGTGCTAG", "fitted relative affinity [z-score]": 2.53}
{"Strand": "GACGGGTTCGGACTGGGGACGTGCTAG", "fitted relative affinity [z-score]": -0.217}
{"Strand": "GACGATATCAGACTGGTGACGTGCTAG", "fitted relative affinity [z-score]": 0.23}
{"Strand": "GACGATTTCAGTATCGAAACGTGCTAG", "fitted relative affinity [z-score]": 3.01}
{"Strand": "TTAGGTATTGACTTTCGGTTAGTGCTA", "fitted relative affinity [z-score]": 1.36}
{"Strand": "GACGGTCTCCTACTGCTGATGTGCTAG", "fitted relative affinity [z-score]": 0.951}
{"Strand": "ATGGGTATGGCCTATTTATATGTGCTA", "fitted relative affinity [z-score]": -0.543}
{"Strand": "TTAGGTTTCGCACTGGGTTAGTGCTAG", "fitted relative affinity [z-score]": 3.18}
{"Strand": "TTAGGTCTCGGTCTGGGTTAGTGCTAG", "fitted relative affinity [z-score]": 0.0137}
{"Strand": "TCACTACTGCATTTTTTACTGTGCTAG", "fitted relative affinity [z-score]": 0.215}
{"Strand": "TTAGGAATCCTTATCCTTTAGTGCTAG", "fitted relative affinity [z-score]": 2.68}
{"Strand": "GACGGTTCCGGTTTAGGGACGTGCTAG", "fitted relative affinity [z-score]": 4.18}
{"Strand": "GACGGTATCCTTATCCTGACGTGCTAG", "fitted relative affinity [z-score]": 5.34}
{"Strand": "GACGGTTTCGGAATGGGGACGTGCTAG", "fitted relative affinity [z-score]": 7.38}
{"Strand": "CGTTTTTCATTTTTTTTTTCGTGCTAG", "fitted relative affinity [z-score]": 3.4}
{"Strand": "TTAGGTATCCTCCTGCTTTAGTGCTAG", "fitted relative affinity [z-score]": 1.28}
{"Strand": "TCAGCATACCATATCAGACTGTGCTAG", "fitted relative affinity [z-score]": 0.814}
{"Strand": "TCATCTTCCCTTTTAAGACTGTGCTAG", "fitted relative affinity [z-score]": 4.35}
{"data": "Study 2", "target": "RING finger protein unkempt homolog, zinc fingers 1-6, SBP tag (UNK, Homo sapiens, UniProt Q9C0B0, residues 30-357)", "technique": "RNA Bind-n-Seq", "molecule type": "RNA", "sample": "in vitro", "tested at": "100 nM", "setting": "RNA with constant flanks, vertebrate orthologous sites, ends assumed", "relative to": "input RNA pool", "reading": "higher = stronger binding", "shared flanks, not repeated": "GGGAGUUCUACAGUCCGACGAUC … CAACAGAGGAUUGAGCAUCA", "UniProt Q9C0B0, sequence (30-357, looked up)": "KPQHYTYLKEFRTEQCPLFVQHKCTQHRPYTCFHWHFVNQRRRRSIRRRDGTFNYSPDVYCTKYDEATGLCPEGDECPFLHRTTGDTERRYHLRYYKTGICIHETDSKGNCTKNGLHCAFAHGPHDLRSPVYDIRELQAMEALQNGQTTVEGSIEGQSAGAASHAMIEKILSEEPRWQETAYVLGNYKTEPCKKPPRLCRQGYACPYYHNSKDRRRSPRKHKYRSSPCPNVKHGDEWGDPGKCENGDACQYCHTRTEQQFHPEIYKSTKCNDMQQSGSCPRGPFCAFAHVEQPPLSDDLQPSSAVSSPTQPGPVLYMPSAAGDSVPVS"}
{"Strand": "UGGGUUACUCCUAUUAUUAUCAAGUAGCUGGAAUUGUGAAGGUCGGAGUAGUUAGAUCUUUAGCUUUUAUUCUUUUUUUUUUUUUUGUAUUACUAUCCAUGUGUAUAAAUUAUUGAUCAU", "bound/input enrichment [ratio]": 5.35}
{"Strand": "CGUUUCCUUUUUGUAGGUACCAUUGCCCAAUGCCCAAGAUUUUUUAUGUGCAGUUGACUGUAGGAAAUAAUGAAUUCUUCGGUGAAGGGAAGACUCGCCAAGCUGCCAGACACAAUGCUG", "bound/input enrichment [ratio]": 0.585}
{"Strand": "CCAGUCUUCCACUUAGGGUCAGCCUCAGAUCUAUAGGAUUUAUGACAAAUGUAUUAUAUCUAGUUGAGUUGAGUUGAGUUUAAUAUUUUUUUAUUAGCUUGUAAAUAAAGUUGGCAUCUU", "bound/input enrichment [ratio]": 1.41}
{"Strand": "AGUAGAUUUAUACGAAUACUGAAGUUACAGAGGAUAUCCAAGGUGGUGAUAAAGUGUGUGUUGGUAGUUACUAAAAGAACUUUAGCUGUUACUGCCUUGUAUUUCUAUCCCUUGUUUUAG", "bound/input enrichment [ratio]": 0.438}
{"Strand": "CUGGCCAAACGUUUUUUUACUUGUAUUACUUUGUCCUUAUUUUUUUUCCUGGUAGUUAGUUUCCGUUGUUACCCACACCAUUUUUAUGUCACCUUCACUGAAGAAGGGCUAGAGUUUAAC", "bound/input enrichment [ratio]": 2.28}
{"Strand": "CUCUUUCCUAGGUUGGACCUAGUGGAAAAGUCAUAGGAAUUGAUCACAUUAAGGAGUUAGUGGACGACUCAAUAAAUAAUGUCAGAAAGGAUGACCCAAUGCUUUUGUCUUCAGGGAGAG", "bound/input enrichment [ratio]": 0.531}
{"Strand": "GUUUUUGAGCAUACAAAAUGUUUAUCAAAUGCUGGGUGUGAAAUGAAGUCAUUUAGCAUCAGGUUGUUUGUUAUAUUUUAGCAAUUAGAUGUCUUUAAACCAGAGGCACACUGCCCUUGU", "bound/input enrichment [ratio]": 0.725}
{"Strand": "AGGAAAUGCUUGCUGCAAACCCUCAGGAUCGUCCAGAUGCUUUUGAACUAGAACUCAGAUUAGUACAAAUUGCAUUUAAAGAUAGCAGCUGGGAAACGUGACACAUAUAUUGUUUGCAAA", "bound/input enrichment [ratio]": 0.9}
{"Strand": "GUCAUCUGACUGGGUGAAGACUGUUCCAAGUUACAACCAAACAAAUAGCUCCAUGGACUUUAGAAAUUAUAUGAUGAGAGAUGAGACUCUGGAACCACUGCCCCAAAACUGGGAAAUGGC", "bound/input enrichment [ratio]": 1.02}
{"Strand": "UUCAGGCACAACUGACUGGUUCACAGCAUCCUUUACAUAGUUAUCUGUCAGGUGCAGGUGUAGUUAAUUUUCAGGAAACAAGCAGGCAGUCCUCUUUAUCCUGUAGCCCAGUUGGAGAUU", "bound/input enrichment [ratio]": 1.32}
{"Strand": "UUGUGGCCGCUUCUCCCCUGCCUCAGUGAGGUAAAUUCUCCCUUGGCAUUUGGUUGGUACCAGAGUCAGCCACACCUAAUACAUGUUUCCACAUUUCUUUCACACUCGUAGUCAUCUUCG", "bound/input enrichment [ratio]": 0.359}
{"data": "Study 3", "target": "Histone acetyltransferase KAT6A, winged helix 1, GST fusion (KAT6A, Homo sapiens, UniProt Q92794, residues 1-85)", "technique": "protein binding microarray", "molecule type": "double-stranded DNA, one strand shown", "sample": "in vitro", "tested at": "not given", "setting": "8-mer, flanks averaged, mean of 2 arrays, mostly near background", "relative to": "not given", "reading": "higher = stronger binding", "Construct (chain)": "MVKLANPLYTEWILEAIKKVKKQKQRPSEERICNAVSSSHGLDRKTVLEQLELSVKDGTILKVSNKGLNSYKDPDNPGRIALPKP"}
{"Strand": "GGCCAACC", "E-score": 0.023}
{"Strand": "AAAACAAT", "E-score": -0.0512}
{"Strand": "GCGCCGAC", "E-score": 0.418}
{"Strand": "GGCCGAAC", "E-score": 0.204}
{"Strand": "TCCCCGCA", "E-score": 0.304}
{"Strand": "GCTGACAA", "E-score": -0.00211}
{"Strand": "CACAGTAC", "E-score": -0.156}
{"Strand": "CCGTGTGA", "E-score": 0.137}
{"Strand": "ATAGTGCG", "E-score": 0.273}
{"Strand": "ATAGGACG", "E-score": 0.0403}
{"Strand": "CCGTGAAC", "E-score": 0.168}
{"Strand": "ATCGCCCA", "E-score": -0.125}
{"Strand": "AAATCCTC", "E-score": -0.181}
{"Strand": "AAAACATG", "E-score": -0.0601}
{"Strand": "TAGAAGGA", "E-score": 0.0666}
{"Strand": "AACACTAG", "E-score": -0.00464}
{"data": "Study 4", "target": "RNA binding protein fox-1 homolog 2, RRM domain, GST-SBP tag (RBFOX2, Homo sapiens, UniProt O43251-10, residues 100-194)", "technique": "RNA Bind-n-Seq", "molecule type": "RNA", "sample": "in vitro", "tested at": "365 nM", "setting": "natural RNA segment, single round, ends assumed", "relative to": "no-protein control", "reading": "higher = stronger binding", "shared flanks, not repeated": "GGGAGUUCUACAGUCCGACGAUC … UGGAAUUCUCGGGUGCCAA", "Target sequence (chain)": "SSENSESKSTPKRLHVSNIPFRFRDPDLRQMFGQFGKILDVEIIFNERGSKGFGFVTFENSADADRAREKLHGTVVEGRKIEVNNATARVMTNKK"}
{"Strand": "CAUUUCCAUUUCUAAGCAGUUGAAUGACACAGUCAGAUUCUUUGGUGUAUGCUUUGUUCUUUCCAUCUCAAGCAUUUAUCCAAAUUCUGCUCACAGACAUGAGGAAGCAG", "RBNS enrichment (R)": 0.385}
{"Strand": "CCAAAGCACAGGUUUAUUCUAAAGAAAACUUUUACGACAAUACUUUCUGUAUUGUCUAGGUUAAGCCCACUUUAGGAGAUCCUUUACUCAUUAACUUAACCAACAAUGUG", "RBNS enrichment (R)": 0.315}
{"Strand": "AUUGUUUCAUAGCAAGAAUUCGUUGCAAAAAUGCUUUAUUUUUGAACAAUGCUUGGAAAUAUUAUGUGACUUUUUUGUUUGUUUGUUUUAGGAGGAUGGUGUAUGGUGGG", "RBNS enrichment (R)": 1.78}
{"Strand": "UCCAGAGACGGUGUUUCCAGGGGGAGGACCGCCCCCGCUUCCAGAUCCCCGGCCCCGGCUGUGACUGCCCUGUUUCACCCCUGCUGUGUCCCAUCCCCCGUCUGUCCACU", "RBNS enrichment (R)": 0.375}
{"Strand": "GGUCCUGAUGUUGUAUGUACUAUAUAAAGAGACCCCUCCCCUUAUAUUGUGUUUUCCAUCCCUCACCCUCAACAGGAUUAAAAUAAAACAUGCUGGGUUUUUUUGUUUUG", "RBNS enrichment (R)": 0.9}
{"Strand": "AAAAGUCUACUUUUCCAUCUAACUAGAUUGAGACUGGAUUCUUUAGCCCAGUCUUCCUUAGUCUCUGGACCUAGAAGGGACCAUUGGAGAAGCAGGCUCUGCUUCUCUGU", "RBNS enrichment (R)": 0.203}
{"Strand": "AGCUUGUGGGGGUGGGUGGGCAGGUUCUAGGGCUGGUCAUCUGCUGCCCUGUGCAUGAGGUCCCCUGAAGCCGCAAUACAUGACCACCCUUCUACUACUUGCUAUUACCU", "RBNS enrichment (R)": 2.64}
{"Strand": "CACCCCAAGGUGACCAGCCAUGGCCUGUCAUACUUAGGAGAGCAAGCUUUUUGCGGGUACAGAGCAGGCUUUGGGGGGUAACCAGCUAGCUGCUGCUAGGCCUUUAUUCC", "RBNS enrichment (R)": 0.249}
{"Strand": "UUGUUUUCAAUAUUGUAUUCAGCCUAUUGUAGGAGGGGGAUGUGGCGUUUCAACUCAUAUAAUACAGAAAGAGUUUUGAAUGGGCAGAUUUCAAACUGAAUAUGGGUCCC", "RBNS enrichment (R)": 0.545}
{"Strand": "UUGAGAUCCUUGCUGGAUGCCGACCAGGAUUUCAUGUGAGGGCCAGGGAUGCACAGACCUGGUCAAUCUUUGGCUGAUUGAAAGAGCCUCAGUAAAGAGACAAGGAGAGA", "RBNS enrichment (R)": 2.5}
{"Strand": "GGGCCAGGGGUCUCCAGCAUGACUUGUUUGCUCUCCCUCCCCCACCCUCACUCCUACCUCCCAUAGAAGUGUAUUCUUAUCCCUAGUUCCUGUCUGAGUAAGCCAGGGUG", "RBNS enrichment (R)": 6}
{"Strand": "UUUCCCCUGUCCUGAUGGUCAGCUCCCUUCUCUGUAGGGAACUCUGGGGUCCCCCAUCCCCAUCCUCCAGCUUCUGGUACUCUCCUAGAGACAGAAGCAGGCUGGAGGUA", "RBNS enrichment (R)": 0.257}
{"note": "For quick reference, copied from above (study 3):"}
{"Strand": "CCGTGAAC", "E-score": 0.168}
{"Strand": "CACAGTAC", "E-score": -0.156}
{"Strand": "TCCCCGCA", "E-score": 0.304}
{"Strand": "TAGAAGGA", "E-score": 0.0666}
{"Strand": "GGCCGAAC", "E-score": 0.204}
{"Strand": "AACACTAG", "E-score": -0.00464}
{"Strand": "GCTGACAA", "E-score": -0.00211}
